Experimental data of several laboratories.
Each line is one published result; not all experiments were run side by side.
Organism: Pseudomonas aeruginosa

SMILES	assay	test system	conditions	MIC
CC(C)[C@H](NC(=O)[C@@H](NC(=O)[C@H](CCCCN)NC(=O)CNC(=O)[C@@H](NC(=O)[C@@H](NC(=O)[C@H](CO)NC(=O)[C@@H](NC(=O)[C@@H](NC(=O)[C@@H]1CCCN1C(=O)[C@@H](NC(=O)[C@@H](NC(=O)CN)C(C)C)C(C)C)C(C)C)C(C)C)C(C)C)C(C)C)C(C)C)C(N)=O	broth microdilution			> 100 µM
c1ccc(CSc2nc3ccccc3cc2CNCCC2CCN(C3CCCC3)CC2)cc1	microbial growth, broth dilution	MDR		32 µg/mL
CC(C)C[C@@H]1NC(=O)CSC[C@@H](C(=O)N[C@@H](CCCCN)C(N)=O)NC(=O)[C@H](CC(C)C)NC(=O)[C@H](CC(C)C)NC(=O)[C@H](CC(C)C)NC(=O)[C@@H]2CSCC(=O)N[C@@H](CC(C)C)C(=O)N[C@@H](CC(C)C)C(=O)N[C@@H](CCCCN)C(=O)N[C@@H](CCCCNC(=O)[C@H](CCCCN)NC(=O)[C@H](CC(C)C)NC1=O)C(=O)N[C@@H](CCCCN)C(=O)N[C@@H](CCCCN)C(=O)N[C@@H](CC(C)C)C(=O)N2		PAO1	18 h	64 µg/mL
CC(C)C[C@H](NC(=O)[C@H](CCCCN)NC(=O)[C@H](CCCCNC(=O)[C@H](CC(C)C)NC(=O)[C@H](CCCCN)NC(=O)[C@H](CCCCNC(=O)[C@H](CC(C)C)NC(=O)[C@H](CCCCN)NC(=O)[C@H](CCCCNC(=O)[C@H](CC(C)C)NC(=O)[C@@H](N)CCCCN)NC(=O)[C@H](CC(C)C)NC(=O)[C@@H](N)CCCCN)NC(=O)[C@H](CC(C)C)NC(=O)[C@H](CCCCN)NC(=O)[C@H](CCCCNC(=O)[C@H](CC(C)C)NC(=O)[C@@H](N)CCCCN)NC(=O)[C@H](CC(C)C)NC(=O)[C@@H](N)CCCCN)NC(=O)[C@H](CC(C)C)NC(=O)[C@H](CCCCN)NC(=O)[C@H](CCCCNC(=O)[C@H](CC(C)C)NC(=O)[C@H](CCCCN)NC(=O)[C@H](CCCCNC(=O)[C@H](CC(C)C)NC(=O)[C@@H](N)CCCCN)NC(=O)[C@H](CC(C)C)NC(=O)[C@@H](N)CCCCN)NC(=O)[C@H](CC(C)C)NC(=O)[C@H](CCCCN)NC(=O)[C@H](CCCCNC(=O)[C@H](CC(C)C)NC(=O)[C@@H](N)CCCCN)NC(=O)[C@H](CC(C)C)NC(=O)[C@@H](N)CCCCN)C(N)=O	broth microdilution	PAO1	37 °C	2 µg/mL
CC[C@H](C)[C@H](NC(=O)[C@H](CCC(N)=O)NC(=O)[C@@H]1CCCN1C(=O)[C@@H](NC(=O)[C@@H](NC(=O)[C@H](Cc1ccccc1)NC(=O)[C@H](C)NC(=O)[C@H](C)NC(=O)[C@H](CC(C)C)NC(=O)[C@H](CCCNC(=N)N)NC(=O)[C@H](C)NC(=O)[C@H](CC(C)C)NC(=O)[C@H](CC(C)C)NC(=O)CNC(=O)[C@@H](NC(=O)[C@@H](N)Cc1ccccc1)C(C)C)C(C)C)[C@@H](C)CC)C(=O)N[C@H](C(=O)N[C@@H](CCCCN)C(=O)N[C@@H](CCCNC(=N)N)C(=O)N[C@@H](Cc1ccccc1)C(=O)N[C@@H](CCC(N)=O)C(=O)N[C@@H](CCCCN)C(=O)N[C@@H](CCCCN)C(=O)N[C@@H](CC(N)=O)C(N)=O)C(C)C	broth microdilution	ATCC 27853		25 µM
C[C@H](N)[C@@H](CCCCCCCCCCCCCCC(=O)CCCCCCC[C@@H](O)[C@@H](C)N)O[C@@H]1O[C@H](CO)[C@H](O)[C@H](O)[C@H]1O	microbial growth, resazurin	ATCC27853	6 h	6.47 µM
CC[C@H](C)[C@H](NC(=O)CNC(=O)[C@H](CCCCN)NC(=O)[C@H](C)NC(=O)[C@H](CCC(=O)O)NC(=O)[C@H](Cc1ccccc1)NC(=O)[C@H](CO)NC(=O)[C@H](CC(C)C)NC(=O)[C@@H](NC(=O)[C@H](CC(=O)O)NC(=O)[C@H](C)NC(=O)[C@@H](NC(=O)[C@@H](N)C(C)C)[C@@H](C)O)C(C)C)C(=O)N[C@@H](C)C(=O)N[C@H](C(=O)N[C@@H](CC(N)=O)C(=O)N[C@@H](Cc1c[nH]cn1)C(=O)N[C@@H](CO)C(=O)N[C@@H](C)C(=O)N[C@H]1CSSC[C@@H]2NC(=O)[C@H](C(C)C)NC(=O)CNC(=O)[C@H](CC(N)=O)NC(=O)[C@H](CCC(N)=O)NC(=O)[C@H](C)NC(=O)[C@H](CO)NC(=O)CNC(=O)CNC(=O)[C@H](CCCCN)NC(=O)[C@H](CCCCN)NC(=O)[C@H](CCCNC(=N)N)NC(=O)[C@H](CC(C)C)NC(=O)[C@H](C)NC(=O)[C@H]([C@@H](C)CC)NC(=O)[C@H](CSSC[C@@H](C(=O)N[C@@H](CCCNC(=N)N)C(=O)N[C@@H](CC(N)=O)C(=O)O)NC(=O)[C@H](C(C)C)NC2=O)NC(=O)[C@H](Cc2c[nH]cn2)NC(=O)[C@H](CC(C)C)NC(=O)[C@H](C)NC1=O)C(C)C	broth microdilution	KCTC 1637	16 h, 37 °C	> 100 µM
CC(C)C[C@@H]1NC(=O)[C@H](CCCCN)NC(=O)CSC[C@@H](C(=O)N[C@@H](CCCCN)C(N)=O)NC(=O)[C@H](CCCCN)NC(=O)[C@H](CC(C)C)NC(=O)[C@H](CC(C)C)NC(=O)[C@@H]2CSCC(=O)N[C@@H](CCCCN)C(=O)N[C@@H](CC(C)C)C(=O)N[C@@H](CCCCN)C(=O)N[C@@H](CCCCNC(=O)[C@H](CCCCN)NC1=O)C(=O)N[C@@H](CCCCN)C(=O)N[C@@H](CC(C)C)C(=O)N[C@@H](CC(C)C)C(=O)N2		PAO1	18 h	64 µg/mL
CCCCCCCC[C@H]1NC(=O)[C@H](CCN)NC(=O)[C@@H](NC(=O)[C@H](CCN)NC(=O)[C@@H](NC(=O)[C@H](CCN)NC(=O)c2ccc(-c3ccccc3)cc2)[C@@H](C)O)CCNC(=O)[C@H]([C@@H](C)O)NC(=O)[C@H](CCN)NC(=O)[C@H](CCN)NC(=O)[C@H](CC(C)C)NC1=O		ATCC 27853, CaMHB	18 h, 37 °C	2 µg/mL
CCCCCCCCCCCCCCCC(=O)NCCCC[C@@H]1NC(=O)[C@H](CCCNC(=N)N)NC(=O)[C@H](CCCNC(=N)N)NC(=O)[C@H](CCCNC(=N)N)NC(=O)[C@H](CCCNC(=N)N)NC(=O)[C@H](CCCNC(=N)N)NC1=O	broth microdilution	PAO1	37 °C	> 143 µg/mL
CC[C@@H](C)[C@H](NC(=O)[C@H](C)NC(=O)[C@H](CCCCN)NC(=O)[C@H](CC(C)C)NC(=O)[C@H](C)NC(=O)[C@@H](NC(=O)[C@H](Cc1c[nH]cn1)NC(=O)[C@H](CC(C)C)NC(=O)[C@@H](NC(=O)[C@@H](NC(=O)[C@H](CCCCN)NC(=O)[C@H](CCCCN)NC(=O)[C@H](C)NC(=O)[C@H](CO)NC(=O)[C@H](CCCCN)NC(=O)[C@H](Cc1ccccc1)NC(=O)[C@@H](NC(=O)[C@H](CCCCN)NC(=O)[C@H](CC(C)C)NC(=O)[C@H](Cc1ccccc1)NC(=O)[C@H](CO)NC(=O)[C@H](CCCCN)NC(=O)[C@H](Cc1c[nH]c2ccccc12)NC(=O)[C@H](CCCCN)NC(C)=O)[C@@H](C)O)[C@@H](C)O)C(C)C)[C@@H](C)O)C(=O)N[C@@H](CO)C(=O)N[C@@H](CO)C(N)=O	broth dilution	ATCC 27853, Mueller-Hinton broth	24 h, 37 °C	4 µg/mL
CC(C)C[C@H](NC(=O)[C@H](CCCCNC(=O)[C@H](CCCCN)NC(=O)[C@H](CC(C)C)NC(=O)[C@H](CCCCNC(=O)[C@H](CCCCN)NC(=O)[C@H](CC(C)C)NC(=O)[C@H](CCCCNC(=O)[C@H](CCCCN)NC(=O)[C@@H](N)CC(C)C)NC(=O)[C@H](CCCCN)NC(=O)[C@@H](N)CC(C)C)NC(=O)[C@H](CCCCN)NC(=O)[C@H](CC(C)C)NC(=O)[C@H](CCCCNC(=O)[C@H](CCCCN)NC(=O)[C@@H](N)CC(C)C)NC(=O)[C@H](CCCCN)NC(=O)[C@@H](N)CC(C)C)NC(=O)[C@H](CCCCN)NC(=O)[C@H](CC(C)C)NC(=O)[C@H](CCCCNC(=O)[C@H](CCCCN)NC(=O)[C@H](CC(C)C)NC(=O)[C@H](CCCCNC(=O)[C@H](CCCCN)NC(=O)[C@@H](N)CC(C)C)NC(=O)[C@H](CCCCN)NC(=O)[C@@H](N)CC(C)C)NC(=O)[C@H](CCCCN)NC(=O)[C@H](CC(C)C)NC(=O)[C@H](CCCCNC(=O)[C@H](CCCCN)NC(=O)[C@@H](N)CC(C)C)NC(=O)[C@H](CCCCN)NC(=O)[C@@H](N)CC(C)C)C(=O)N[C@@H](CCCCN)C(N)=O		PAO1, LB medium		2 µM

Repeated from above:
SMILES	assay	test system	conditions	MIC
C[C@H](N)[C@@H](CCCCCCCCCCCCCCC(=O)CCCCCCC[C@@H](O)[C@@H](C)N)O[C@@H]1O[C@H](CO)[C@H](O)[C@H](O)[C@H]1O	microbial growth, resazurin	ATCC27853	6 h	6.47 µM
